Published values gathered from unrelated publications.
Every numbered part comes from another study and shows a few of its results, in no order. Substitutions count along the parent as printed.

Series 1
Target: CCND3, cyclin fold, Cln2 fusion (human)
Technique: yeast growth competition, sequencing
Medium: yeast
Notes: weak parent motif
Relative to: not given
Direction: higher = stronger binding
Parent: PKN2 docking peptide (human); VSAVRKLDFSDTM
| Change | normalised enrichment score |
| --- | --- |
| VSAVRKLDFSDRM [T12R] | 0.832 |
| VSAVRKLHFSDTM [D8H] | 0.517 |
| VFAVRKLDFSDTM [S2F] | -0.15 |
| VSAVEKLDFSDTM [R5E] | 0.00532 |
| VSDVRKLDFSDTM [A3D] | -0.15 |
| VSAVDKLDFSDTM [R5D] | -0.0624 |
| VSSVRKLDFSDTM [A3S] | 0.181 |
| VSAVRYLDFSDTM [K6Y] | 0.325 |
| VSRVRKLDFSDTM [A3R] | 0.366 |
| VSANRKLDFSDTM [V4N] | 0.438 |
| VSAVRKLWFSDTM [D8W] | 0.24 |
| VSAVRKPDFSDTM [L7P] | 0.165 |
| VSAVRKLDFSVTM [D11V] | 0.592 |
| VSAWRKLDFSDTM [V4W] | -0.0407 |
| VSAVGKLDFSDTM [R5G] | -0.417 |

Series 2
Target: ABI1, truncated, D143A, DHFR fusion (Arabidopsis thaliana)
Technique: DHFR PCA, deep sequencing
Medium: yeast
Notes: methotrexate growth selection, single substitutions
Together with: (+)-ABA 17 µM
Relative to: wild-type fitted maximum
Direction: higher = stronger binding
Parent: PYL1, truncated, DHFR fusion (Arabidopsis thaliana); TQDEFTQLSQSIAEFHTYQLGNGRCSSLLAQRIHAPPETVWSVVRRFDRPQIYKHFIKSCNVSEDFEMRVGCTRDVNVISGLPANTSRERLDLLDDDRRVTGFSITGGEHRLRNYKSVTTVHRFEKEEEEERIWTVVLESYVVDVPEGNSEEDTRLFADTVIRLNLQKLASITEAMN; partner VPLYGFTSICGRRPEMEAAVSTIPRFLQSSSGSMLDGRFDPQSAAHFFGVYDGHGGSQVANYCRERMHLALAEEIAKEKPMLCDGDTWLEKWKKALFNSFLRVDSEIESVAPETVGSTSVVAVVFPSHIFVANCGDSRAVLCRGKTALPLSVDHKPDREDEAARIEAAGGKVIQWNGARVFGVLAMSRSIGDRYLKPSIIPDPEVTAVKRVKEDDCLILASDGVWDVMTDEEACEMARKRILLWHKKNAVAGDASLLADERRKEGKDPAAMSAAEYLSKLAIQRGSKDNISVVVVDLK
| Change | relative binding score [%] |
| --- | --- |
| V70S | 48.5 |
| E174L | 32.8 |
| K168I | 38.7 |
| V121R | -0.62 |
| C72Y | 43.6 |
| Y115V | 6.98 |
| V136P | 8.44 |
| V44N | -20.5 |
| S150G | 47.3 |
| N61A | 84.3 |
| E127N | 84.2 |
| T73I | 85.9 |
| G148F | 31.5 |
| Q10S | 85.8 |
| T160Y | 76.6 |
| E131M | 93.4 |
| E128Y | 76 |
| V76Y | 48.1 |

Series 3
Target: RING finger protein unkempt homolog, zinc fingers 1-6, GST-SBP tag (UNK, Homo sapiens, UniProt Q9C0B0, residues 30-357)
Technique: RNA Bind-n-Seq
Molecule type: RNA
Medium: in vitro
Tested at: not given
Notes: RNA with constant flanks, human and mouse sites, ends assumed
Relative to: input RNA pool
Direction: higher = stronger binding
Shared flanks, not repeated: GGGAGUUCUACAGUCCGACGAUC … CAACAGAGGAUUGAGCAUCA
Construct (chain): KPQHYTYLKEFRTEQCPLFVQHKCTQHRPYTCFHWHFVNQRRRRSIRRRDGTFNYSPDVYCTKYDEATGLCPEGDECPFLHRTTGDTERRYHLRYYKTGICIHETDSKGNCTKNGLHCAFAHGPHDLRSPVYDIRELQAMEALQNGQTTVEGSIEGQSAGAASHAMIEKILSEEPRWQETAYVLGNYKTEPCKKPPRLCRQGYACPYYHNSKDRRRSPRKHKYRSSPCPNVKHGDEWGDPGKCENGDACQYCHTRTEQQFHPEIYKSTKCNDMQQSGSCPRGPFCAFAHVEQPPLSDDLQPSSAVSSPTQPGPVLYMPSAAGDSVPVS
| Oligonucleotide | bound/input enrichment [ratio] |
| --- | --- |
| CCCAGUCACCCUCUCGAGUUAUCAGAAAAAAACUUCCAGCUCAACCAGGACAAGAUGAACUUUUCCACGCUGAGGAACAUCCAGGGUCUGUUUGCUCCCCUGAAGUUACAGAUGGAAUUC | 0.237 |
| UCCCUGCCCUUGGGGCCAAGCUUGGACCUCCUUGGCCCCGAACCCUGGUCCACCCCGGUUUGUCAGGGCUCCCAGUCCAGCGAGAUGCCACUUCCUAGCCUCAGAGCUGCUGGGCAGGGA | 0.285 |
| AUGGAGAGAAAAGAUUUACUGAAAGCAAAUGUGAAAAUCUUCAAAUCCCAGGGUGCAGCCUUAGAUAAAUACGCCAAGAAGUCAGUUAAGGUUAUUGUUGUGGGUAAUCCAGCCAAUACC | 0.361 |
| GGAGCAGCUGUGCUGCAGAAAAUGCUUCUGGAAGAUGAGCUGCAGGAUGCAGUGCUGCUCCUUUUUGCAAACAAACAGGAUCUGCCAAACGCUAUGGCCAUCAGUGAGAUGACAGACAAG | 0.0981 |
| AGAAUGGAAUCCUGACAAUGAUACUGGACACACAAUGGGUGAUCCAUUCAUGCUGCAGCAGUCUACAAACCCAGCACCAGGGAUUCUGGGACCGCCGCCUCCUUCAUUUCAUCUUGGAGG | 0.173 |
| GCCAUCGCCAUGCACUUCCACCUCUCCACCAGCCAGGUCCCUGCCAAGACAGACUGUGUCAUGUUCUUCGGGCCCGUGGUCCCCGACGGCUACGGUGUCUGCUAUAACCCCAUGGAGGCC | 0.157 |
| CUGGCAUCAGUGAAGAUUUCCAAGGUGAAAUAUGUUAUCUGGUCGGCAGACAUGUCUCAUGUAGCGUUACUGGCCAAGCAUGCCAUUGUGAUCUGUAACCGCAAGCUGGAUGCUCUGUGU | 0.136 |
| GGCUUUUCCCAGUCCUUCACGCAAGAGCAAGUAGCUGAUAUUGACGGGCAGUAUGCAAUGACUAGGGCUCAGAGGGUCCGAGCUGCCAUGUUCCCUGAGACGCUAGAUGAGGGCAUGCAG | 0.194 |
| CAGUACAUGCAUGAUUCUUUUUCAGCUUUACUAUAGUUCAUGACCUGGACUUUCUGUACUCUUGGAAGCUGGGCUCCUUAAAGGAGGCCUCUAGUGAACACCUUUAUCUCCAUGUCCCUC | 0.583 |
| AUUUUCUAGGAUGUCUUCUGAGAUAGGAAGGGAGAAGAGCCAGGACUGGGGGUCAGCUGGACUAGGUGGAGUAUUUAAAGUGGAGUGGAUACGCAAAGAAAGCCUUCCCUUUCAGUUUGC | 0.564 |
| CCUCGUGCUGCCACAGUUGUUGCUCGUGGCCCCUUGAAGUGCGUUAAGCUGGACCGACCUAGAUUUGAACGUGUUCUUGGCCCAUGCUCAGACAUCCUCAAACGAAACAUCCAGCAGUAC | 0.192 |

Series 4
Target: Ras GTPase-activating protein-binding protein 1, C-terminal RGG region (G3BP1, Homo sapiens, UniProt Q13283)
Chain of UniProt Q13283 (whole entry, looked up): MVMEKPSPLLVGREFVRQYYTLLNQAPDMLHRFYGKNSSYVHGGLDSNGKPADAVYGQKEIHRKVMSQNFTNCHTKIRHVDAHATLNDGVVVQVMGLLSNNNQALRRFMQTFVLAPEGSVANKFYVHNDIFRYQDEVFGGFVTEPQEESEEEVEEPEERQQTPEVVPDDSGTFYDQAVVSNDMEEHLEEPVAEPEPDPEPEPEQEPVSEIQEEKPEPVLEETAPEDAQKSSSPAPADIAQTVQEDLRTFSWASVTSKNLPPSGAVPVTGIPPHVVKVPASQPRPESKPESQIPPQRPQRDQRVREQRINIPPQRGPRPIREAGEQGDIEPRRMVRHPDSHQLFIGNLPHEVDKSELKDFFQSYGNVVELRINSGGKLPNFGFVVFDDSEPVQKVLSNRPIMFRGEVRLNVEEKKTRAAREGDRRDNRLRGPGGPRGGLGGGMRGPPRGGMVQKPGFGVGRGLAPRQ
Technique: RNA Bind-n-Seq
Molecule type: RNA
Medium: in vitro
Tested at: 1 µM
Notes: whole 134-nt RNA, ends assumed
Together with: 150 mM KCl
Relative to: input library
Direction: higher = stronger binding
Shared flanks, not repeated: GGGAGUUCUACAGUCCGACGAUC … UGGAAUUCUCGGGUGUCAAGG
| Oligonucleotide | log2 enrichment |
| --- | --- |
| CACAGACAACACGCACCCCCACAGACACAGAGGGAAGGGGUUGGGAUGGGGACAGGGUGCACAGCAGGGCGGGGUAGGACCCCAGCCCCU | -0.0632 |
| CACAGACAACACGCACCCACACAGACACAGAGGGAAGGGGUUGGGAUGGGGACAGGGUGCACAUCAGGGCGGGGUAGGACCCCAGCCCCU | -0.334 |
| CCUCAAGUCCUGUGCUACACAUCGUAUGUACCGAAUCGGGGCGGGGCGGCGGAAAGUAUUAUGUUACGCCGUUCGGAUCUGCACUUCCAG | -1.32 |
| AGUCCUGUGCUACACAUCGUAUGUACCGAAUCGGGGUUUUGGUUUUGGGGUUUUGGGAAAGUAUUAUGUUACGCCGUUCGGAUCUGCACU | -0.689 |
| ACCAUGCAGGUGGGCAUCUUUGGGAAGUGGGGCAAGGGGGGGAUAGGGAGGGGGGUAACACUUUGGGAACAGGUGGUCCCAGGUCGUGUC | 2.13 |
| UUGGAGGUGGAUUUUGUUUAUUUUUUUAGCUCAUUUCCAGGGGUGGGAAUUUUUUUUUAAUAUGUGUCAUGAAUAAAGUUGUUUUUGAAA | 3.14 |
| UUUACCCCUCACUGGAGUCAGAUGAAGACAACCCCAUCUUUAAGUCCCGGUCGAAGAAAAGGAAAGGCUCAGACGACGCUCCCUACAGCC | -1.06 |
| CCUCAAGUCCUGUGCUACACAUCGUAUGUACCGAAUCGGUUGGGUUGGGUUGGAAAGUAUUAUGUUACGCCGUUCGGAUCUGCACUUCCA | -0.967 |
| UCCUGUGCUACACAUCGUAUGUACCGAAUCGGGUUUUUUGGGGUUUUUUGGGUUUUUUGGAAAGUAUUAUGUUACGCCGUUCGGAUCUGC | -0.136 |
| CAAGUCCUGUGCUACACAUCGUAUGUACCGAAUCGGUUUUUUUGGAAAAAGGAGGAAAGUAUUAUGUUACGCCGUUCGGAUCUGCACUUC | -1.97 |
| AGUCCUGUGCUACACAUCGUAUGUACCGAAUCGGGGUGGGGUUUGGGGAAAAAGGGGAAAGUAUUAUGUUACGCCGUUCGGAUCUGCACU | 1.63 |
| UGGGAGGUGGAUUUUUUUUAUUUUUUUAGCUCAUUUCCAGGGGUGGGAAUUUUUUUUUAAUAUGUGUCAUGAAUAAAGUUGUUUUUGAAA | 3.5 |
| GUCCUGUGCUACACAUCGUAUGUACCGAAUCGGGGCCCCCGGGGCCCCCGGCCCCCGGAAAGUAUUAUGUUACGCCGUUCGGAUCUGCAC | -1.46 |
| UAACUUUAGAGGAGGAUCUGAUGGAUAUGGCAGUGGACGUGGAUUUGGGGAUGGCUAUAAUGGGUAUGGAGGAGGACCUGGAGGUCGCAA | -1.07 |

Series 5
Target: Histone acetyltransferase KAT6A, winged helix 1, GST fusion (KAT6A, Homo sapiens, UniProt Q92794, residues 1-85)
Technique: protein binding microarray
Molecule type: double-stranded DNA, one strand shown
Medium: in vitro
Tested at: not given
Notes: 8-mer, flanks averaged, mean of 2 arrays, mostly near background
Relative to: not given
Direction: higher = stronger binding
Target sequence (chain): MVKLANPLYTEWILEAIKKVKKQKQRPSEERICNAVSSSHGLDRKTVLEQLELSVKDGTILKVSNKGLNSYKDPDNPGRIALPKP
| Oligonucleotide | E-score |
| --- | --- |
| ACGGGCTG | 0.208 |
| TTGCACAA | -0.102 |
| ACCCTTCC | 0.0379 |
| GATACGCA | 0.122 |
| CGAGAAAC | 0.0243 |
| CTTCTCAA | -0.0937 |
| AGCTCTCG | -0.0269 |
| AAAAGATG | -0.0366 |
| ATGATCTG | -0.259 |
| AGTGTCTG | -0.235 |
| GCTAACGA | 0.0124 |
| CATTAAAG | -0.183 |
| TAAGGTGA | -0.0526 |
| CGCTCGCA | 0.267 |
| CGGTGCAC | 0.109 |
| CCTGACTC | -0.0306 |
| ACGCTCCC | 0.15 |
| GGAAACAA | -0.0485 |
| AGACGCTG | -0.116 |
| GGCACAGA | 0.0761 |
| ACCACGAT | -0.292 |
| TGGGCCCA | -0.183 |
| CCAAGATC | -0.212 |

A few entries again (series 5):
| Oligonucleotide | E-score |
| --- | --- |
| AAAAGATG | -0.0366 |
| GCTAACGA | 0.0124 |
| CATTAAAG | -0.183 |
| GATACGCA | 0.122 |
| ACCCTTCC | 0.0379 |
| CTTCTCAA | -0.0937 |
